Measured values of several laboratories.
Each numbered part is a random draw from the data of one study; scales do not carry over between parts.
Sequence of UniProt Q9C8N7 (whole entry, looked up): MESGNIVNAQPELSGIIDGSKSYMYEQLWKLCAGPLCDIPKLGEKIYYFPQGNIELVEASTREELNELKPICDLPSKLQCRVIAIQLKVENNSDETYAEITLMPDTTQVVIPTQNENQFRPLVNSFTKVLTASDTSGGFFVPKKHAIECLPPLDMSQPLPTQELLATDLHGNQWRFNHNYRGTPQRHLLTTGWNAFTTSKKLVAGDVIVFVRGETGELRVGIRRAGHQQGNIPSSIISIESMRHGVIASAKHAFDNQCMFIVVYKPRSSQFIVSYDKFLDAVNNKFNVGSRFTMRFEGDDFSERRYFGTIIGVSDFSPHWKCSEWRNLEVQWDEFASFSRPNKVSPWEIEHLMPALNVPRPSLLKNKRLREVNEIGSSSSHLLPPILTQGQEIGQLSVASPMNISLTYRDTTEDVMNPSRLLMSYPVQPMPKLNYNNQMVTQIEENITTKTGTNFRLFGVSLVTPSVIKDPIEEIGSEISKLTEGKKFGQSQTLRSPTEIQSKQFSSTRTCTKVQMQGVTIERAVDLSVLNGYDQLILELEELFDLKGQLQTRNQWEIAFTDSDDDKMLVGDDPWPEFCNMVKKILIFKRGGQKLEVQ

Series 1
Target: Prothrombin, mature alpha-thrombin (F2, Homo sapiens, UniProt P00734)
Technique: aptamer microarray, sandwich
Molecule type: DNA with 2'F-ANA
Medium: in vitro
Concentration: 200 nM
Setting: whole 15-mer aptamer, many near background
Added: Cy3 exosite-II aptamer, 400 nM
Reading: higher = stronger binding
Quantity: mean fluorescence intensity
Strand: GGTTGGTGTGGTTGG
2'F-ANA at 4 7 10 11 12 14: 64.8 a.u.
2'F-ANA at 2 8 9 10 15: 144 a.u.
2'F-ANA at 1 3 4 6 7 10 12 13 14: 85.5 a.u.
2'F-ANA at 1 2 3 4 9 11 13: 117 a.u.
2'F-ANA at 1 3 4 5 6 7 8 9 10 11 13 14: 57.5 a.u.
2'F-ANA at 3 4 5 10 12 13 15: 50.6 a.u.
2'F-ANA at 2 4 5 7 15: 71.2 a.u.
2'F-ANA at 1 2 3 5 6 7 8 10 15: 54.7 a.u.
2'F-ANA at 2 5 7 9 11 12 13 15: 113 a.u.
2'F-ANA at 1 5 6 8 9 11: 57 a.u.
2'F-ANA at 1 4 5 10 12 13 14 15: 46.8 a.u.
2'F-ANA at 3 7 8 9 11 12 13 14 15: 658 a.u.
2'F-ANA at 1 3 6 8 10 11 12 14: 63.9 a.u.
2'F-ANA at 2 5 6 7 11 14 15: 51.5 a.u.
2'F-ANA at 4 5 6 12: 174 a.u.
2'F-ANA at 2 5 7 8 13 14 15: 76 a.u.
2'F-ANA at 3 8 12 13 14 15: 660 a.u.

Series 2
Target: Sal-like protein 4, full length isoform B (SALL4, Homo sapiens, UniProt Q9UJQ4-2, residues 1-616)
Technique: universal PBM
Molecule type: double-stranded DNA, one strand shown
Medium: in vitro
Concentration: not given
Setting: 8-mer, flanks averaged, mean of replicates
Reading: higher = stronger binding
Quantity: E-score
Residues (chain): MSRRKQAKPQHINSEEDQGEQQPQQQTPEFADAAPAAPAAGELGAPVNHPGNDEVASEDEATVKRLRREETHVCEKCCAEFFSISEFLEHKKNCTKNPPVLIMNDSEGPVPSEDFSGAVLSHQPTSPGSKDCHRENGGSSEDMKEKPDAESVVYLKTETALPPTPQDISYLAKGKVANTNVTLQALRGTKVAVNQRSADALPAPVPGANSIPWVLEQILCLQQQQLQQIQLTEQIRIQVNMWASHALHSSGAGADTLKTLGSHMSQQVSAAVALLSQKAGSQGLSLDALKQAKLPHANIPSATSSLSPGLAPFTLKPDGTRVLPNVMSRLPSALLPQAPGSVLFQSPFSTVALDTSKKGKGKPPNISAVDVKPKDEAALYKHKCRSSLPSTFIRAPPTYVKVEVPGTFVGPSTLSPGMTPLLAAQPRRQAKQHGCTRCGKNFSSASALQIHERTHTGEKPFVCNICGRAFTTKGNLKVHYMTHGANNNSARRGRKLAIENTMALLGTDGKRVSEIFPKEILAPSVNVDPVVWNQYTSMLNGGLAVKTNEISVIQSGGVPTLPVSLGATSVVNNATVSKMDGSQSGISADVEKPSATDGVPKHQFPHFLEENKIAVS
CTAGGATA: 0.122
CATGGGGA: -0.205
CAGGTGCG: -0.0988
ATTGACGC: 0.0662
AATCAGGA: 0.00873
GTGGCAAA: -0.0402
AAGGTGGC: -0.124
ACAACACA: 0.0608
CCGGAAAG: -0.223
CAGGCGTC: -0.274
CAATTGAC: 0.0614
AGCTGGTG: -0.208
AAGTGGCT: -0.0954
CCCAAACG: -0.163

Series 3
Target: Ras GTPase-activating protein-binding protein 1, full length (G3BP1, Homo sapiens, UniProt Q13283)
Sequence of UniProt Q13283 (whole entry, looked up): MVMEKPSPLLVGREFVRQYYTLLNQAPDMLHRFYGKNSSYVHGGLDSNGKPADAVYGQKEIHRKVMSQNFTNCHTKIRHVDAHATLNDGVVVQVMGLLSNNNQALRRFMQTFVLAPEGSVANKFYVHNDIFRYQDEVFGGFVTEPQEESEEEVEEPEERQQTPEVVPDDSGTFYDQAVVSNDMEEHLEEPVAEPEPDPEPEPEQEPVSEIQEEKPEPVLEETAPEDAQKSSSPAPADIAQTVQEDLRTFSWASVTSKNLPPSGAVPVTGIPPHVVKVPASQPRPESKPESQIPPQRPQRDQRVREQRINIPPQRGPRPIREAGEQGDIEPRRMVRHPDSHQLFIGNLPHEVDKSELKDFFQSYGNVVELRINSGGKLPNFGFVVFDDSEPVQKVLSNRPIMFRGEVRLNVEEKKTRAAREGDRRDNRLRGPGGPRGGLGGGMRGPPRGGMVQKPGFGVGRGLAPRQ
Technique: RNA Bind-n-Seq
Molecule type: RNA
Medium: in vitro
Concentration: 200 nM
Setting: whole 134-nt RNA, ends assumed
Added: 150 mM LiCl
Baseline: input library
Reading: higher = stronger binding
Quantity: log2 enrichment
All molecules: 7-deaza-guanosine replaces G
All sequences stand within: GGGAGUUCUACAGUCCGACGAUC … UGGAAUUCUCGGGUGUCAAGG
GUCCUGUGCUACACAUCGUAUGUACCGAAUCGGAAAAAGGGGAAAAAGGGAAAAAGGGGAAAGUAUUAUGUUACGCCGUUCGGAUCUGCA: -0.0809
UCAAGUCCUGUGCUACACAUCGUAUGUACCGAAUCGGAAAGGUUUUUUUGGUGGAAAGUAUUAUGUUACGCCGUUCGGAUCUGCACUUCC: -0.377
GUCCUGUGCUACACAUCGUAUGUACCGAAUCAAAGUGUGUGUGUGUGUGUGUGUGUAAAAAAGUAUUAUGUUACGCCGUUCGGAUCUGCA: -1.07
CUCAAGUCCUGUGCUACACAUCGUAUGUACCGAAUCGGGGAGGGGAGGGAGGGAAAGUAUUAUGUUACGCCGUUCGGAUCUGCACUUCCA: -0.135
CCUGUGCUACACAUCGUAUGUACCGAAUCGGGGCCCCCCGGGCCCCCCGGGGCCCCCCGGGAAAGUAUUAUGUUACGCCGUUCGGAUCUG: -1.13

Series 4
Target: Histone acetyltransferase KAT6A, winged helix 1, GST fusion (KAT6A, Homo sapiens, UniProt Q92794, residues 1-85)
Technique: protein binding microarray
Molecule type: double-stranded DNA, one strand shown
Medium: in vitro
Concentration: not given
Setting: 8-mer, flanks averaged, mean of 2 arrays, mostly near background
Baseline: not given
Reading: higher = stronger binding
Quantity: E-score
Residues (chain): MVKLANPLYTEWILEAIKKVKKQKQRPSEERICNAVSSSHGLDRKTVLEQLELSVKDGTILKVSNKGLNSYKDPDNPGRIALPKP
ACATGCCG: 0.318
CCGAAATC: 0.0672
CGCCCATC: 0.069
CAATGGGA: -0.151
CAGTTACG: 0.237
ATACAAAA: -0.164
CATTATCC: -0.0172
CAATAGTA: 0.0136
ATAATCAT: -0.146
AATGTCGA: -0.233
CGCCGACC: 0.42
CTCGTGCC: 0.0725
ACGTAAAC: 0.0921
CCCAATAC: -0.0713
CTTGACCC: 0.0903
ATTGCAAG: -0.251

Series 5
Target: RNA binding protein fox-1 homolog 2, RRM domain, GST-SBP tag (RBFOX2, Homo sapiens, UniProt O43251-10, residues 100-194)
Technique: RNA Bind-n-Seq
Molecule type: RNA
Medium: in vitro
Concentration: 365 nM
Setting: natural RNA segment, single round, ends assumed
Baseline: no-protein control
Reading: higher = stronger binding
Quantity: RBNS enrichment (R)
All sequences stand within: GGGAGUUCUACAGUCCGACGAUC … UGGAAUUCUCGGGUGCCAA
Construct (chain): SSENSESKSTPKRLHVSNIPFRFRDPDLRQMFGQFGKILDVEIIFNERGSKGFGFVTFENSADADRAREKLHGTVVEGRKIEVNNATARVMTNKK
AUCCCUUCAAGCUGGUUGAAGAGAGUAGGCAGGGGCGGGGCCCCGAGGUGCUUCAACCCCACCUACUCUGCCUUCCACCUCUCCCCAACCAUCACUGUAAUUUAUGGCCC: 0.358
AAACCUUGUUUGUUUUAUUCACCAUCAUGUACCAAGUGCUUGGCACAUAGUGGGCCUUCAUUAAAUGUUUGUUGAAUAAAAGAGGGAAGAAGGCAAGCCAACCUUAGCUA: 0.37
AAAAAGCAUGUGAAAGUGCACUUAAGAUAGAGUUUUUAUUAAUUACUUACUUAUUACCUAGAUUUUAAAUAGACAAUCCAAAGUCUCCCCUUCGUGUUGCCAUCAUCUUG: 1.15
CACGGGUCCUGCUCCCGCGAUGUGGAAGUGUCACACGGCACCUGUACAAAAAGACUGGCUAACCCCUCUUCCUAUUACCUUGAUCUCUUCCCCCAACUUCCUAACACUUA: 0.583
GUUUAAUUGCCAUGCUUAAUAAAUCAUGAGAACAAAAGAGUAUAGAAUGGAAAGCAUUCCCUGGUAGCUACUUUAAAUACAGGAGCCCUGUAACUUAAUACCAGUAGUCA: 0.786
CCAAAGUACACAGAGCUAAGUAAUCAAUUGCUACACUUAUUGCACAGCUAGACACGGAUUUCAAGUGUAUCCUAAAGCUUUGAACCAAGCUUAGCUUCUCAAAGGCCUAG: 0.761
AAUUACGGAUGUAAUUCUGUGUAUCUUGCUGUGACUCCGAAGACUGUAGUACUGGUGUCAUGGAAAUAUAUGUUAUUUCCACAGUCAUUUCAUUAAAGAUGAAAACUUUA: 0.355
AAAAGUUACUUUAUUUAAAAGCAUUUAUUAAUCUUAGUCUGAAAUCAAAAUAUAGAUUAAUUGGCUCAGCUUUAAUACCUUUCUAGGAGGUGUCACAAUGUAGGGUACCA: 0.595

Further values, each from its own experiment
B1: ARF2 727-859 (Arabidopsis thaliana, UniProt Q94JM3); chain TKTNSSRSCTKVHKQGIALGRSVDLSKFQNYEELVAELDRLFEFNGELMAPKKDWLIVYTDEENDMMLVGDDPWQEFCCMVRKIFIYTKEEVRKMNPGTLSCRSEEEAVVGEGSDAKDAKSASNPSLSSAGNS
B1 (ARF2 727-859)  positive tests (ARF22 498-598 (Arabidopsis thaliana, UniProt Q9C8N7); two-hybrid; baseline: out of 4 tests, higher = firmer interaction): 0

A few entries again (series 3):
CUCAAGUCCUGUGCUACACAUCGUAUGUACCGAAUCGGGGAGGGGAGGGAGGGAAAGUAUUAUGUUACGCCGUUCGGAUCUGCACUUCCA: -0.135
GUCCUGUGCUACACAUCGUAUGUACCGAAUCAAAGUGUGUGUGUGUGUGUGUGUGUAAAAAAGUAUUAUGUUACGCCGUUCGGAUCUGCA: -1.07
GUCCUGUGCUACACAUCGUAUGUACCGAAUCGGAAAAAGGGGAAAAAGGGAAAAAGGGGAAAGUAUUAUGUUACGCCGUUCGGAUCUGCA: -0.0809
CCUGUGCUACACAUCGUAUGUACCGAAUCGGGGCCCCCCGGGCCCCCCGGGGCCCCCCGGGAAAGUAUUAUGUUACGCCGUUCGGAUCUG: -1.13
UCAAGUCCUGUGCUACACAUCGUAUGUACCGAAUCGGAAAGGUUUUUUUGGUGGAAAGUAUUAUGUUACGCCGUUCGGAUCUGCACUUCC: -0.377
